Experimental data from different studies.
Each line is one published result; not all experiments were run side by side. ± gives the spread as reported.
rhlR: HTH-type quorum-sensing regulator RhlR (rhlR, Pseudomonas aeruginosa, UniProt P54292)
UniProt P54292, sequence (whole entry, looked up): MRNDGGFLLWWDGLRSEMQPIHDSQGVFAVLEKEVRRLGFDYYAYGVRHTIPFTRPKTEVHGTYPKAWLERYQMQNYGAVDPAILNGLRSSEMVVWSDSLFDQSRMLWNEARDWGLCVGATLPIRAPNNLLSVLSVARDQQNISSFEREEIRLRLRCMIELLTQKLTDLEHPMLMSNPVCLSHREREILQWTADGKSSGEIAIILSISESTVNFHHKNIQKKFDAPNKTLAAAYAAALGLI
UniProt P61075, sequence (whole entry, looked up): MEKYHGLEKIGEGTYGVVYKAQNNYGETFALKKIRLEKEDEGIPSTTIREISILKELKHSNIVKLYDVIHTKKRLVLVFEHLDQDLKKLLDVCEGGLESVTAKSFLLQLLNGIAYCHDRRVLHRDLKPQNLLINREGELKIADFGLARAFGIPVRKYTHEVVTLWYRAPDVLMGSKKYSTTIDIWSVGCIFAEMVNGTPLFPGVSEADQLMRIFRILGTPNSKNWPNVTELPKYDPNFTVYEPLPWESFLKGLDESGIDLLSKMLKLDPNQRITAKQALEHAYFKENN
UniProt O14965, sequence (whole entry, looked up): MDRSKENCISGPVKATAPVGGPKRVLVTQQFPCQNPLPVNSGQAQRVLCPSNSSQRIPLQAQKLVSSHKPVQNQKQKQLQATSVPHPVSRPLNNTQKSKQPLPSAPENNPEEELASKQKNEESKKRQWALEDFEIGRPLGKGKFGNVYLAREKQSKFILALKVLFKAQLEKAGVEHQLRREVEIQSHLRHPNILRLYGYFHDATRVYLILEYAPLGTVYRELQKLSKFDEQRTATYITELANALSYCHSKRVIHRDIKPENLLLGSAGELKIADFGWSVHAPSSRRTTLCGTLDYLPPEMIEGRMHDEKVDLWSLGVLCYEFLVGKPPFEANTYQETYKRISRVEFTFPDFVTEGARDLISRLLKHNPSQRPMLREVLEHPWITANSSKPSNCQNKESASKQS
UniProt P54753, sequence (whole entry, looked up): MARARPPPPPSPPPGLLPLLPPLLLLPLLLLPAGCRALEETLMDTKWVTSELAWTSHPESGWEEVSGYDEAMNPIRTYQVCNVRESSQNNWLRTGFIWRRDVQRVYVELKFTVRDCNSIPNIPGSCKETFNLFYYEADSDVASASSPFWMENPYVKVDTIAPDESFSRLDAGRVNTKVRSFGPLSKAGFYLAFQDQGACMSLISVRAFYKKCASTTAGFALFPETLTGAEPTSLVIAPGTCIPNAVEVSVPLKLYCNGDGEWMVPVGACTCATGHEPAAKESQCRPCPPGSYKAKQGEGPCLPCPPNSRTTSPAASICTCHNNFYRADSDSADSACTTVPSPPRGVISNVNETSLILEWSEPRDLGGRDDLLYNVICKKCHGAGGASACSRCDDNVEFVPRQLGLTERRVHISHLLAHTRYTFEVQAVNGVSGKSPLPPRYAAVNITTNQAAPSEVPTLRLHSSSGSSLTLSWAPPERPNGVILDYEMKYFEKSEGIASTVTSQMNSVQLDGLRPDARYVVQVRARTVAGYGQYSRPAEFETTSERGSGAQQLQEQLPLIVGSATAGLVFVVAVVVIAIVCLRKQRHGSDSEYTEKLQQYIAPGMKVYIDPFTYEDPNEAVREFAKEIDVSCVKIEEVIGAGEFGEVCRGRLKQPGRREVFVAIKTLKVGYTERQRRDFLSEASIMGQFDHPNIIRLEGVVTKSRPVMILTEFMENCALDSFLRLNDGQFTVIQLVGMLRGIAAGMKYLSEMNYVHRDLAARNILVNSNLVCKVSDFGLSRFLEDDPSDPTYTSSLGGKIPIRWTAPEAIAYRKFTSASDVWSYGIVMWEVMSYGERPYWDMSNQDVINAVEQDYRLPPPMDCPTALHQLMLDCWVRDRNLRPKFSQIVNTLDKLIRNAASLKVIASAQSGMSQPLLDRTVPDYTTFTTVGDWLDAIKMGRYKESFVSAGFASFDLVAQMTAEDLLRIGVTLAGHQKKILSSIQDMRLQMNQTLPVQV
UniProt Q13188, sequence (whole entry, looked up): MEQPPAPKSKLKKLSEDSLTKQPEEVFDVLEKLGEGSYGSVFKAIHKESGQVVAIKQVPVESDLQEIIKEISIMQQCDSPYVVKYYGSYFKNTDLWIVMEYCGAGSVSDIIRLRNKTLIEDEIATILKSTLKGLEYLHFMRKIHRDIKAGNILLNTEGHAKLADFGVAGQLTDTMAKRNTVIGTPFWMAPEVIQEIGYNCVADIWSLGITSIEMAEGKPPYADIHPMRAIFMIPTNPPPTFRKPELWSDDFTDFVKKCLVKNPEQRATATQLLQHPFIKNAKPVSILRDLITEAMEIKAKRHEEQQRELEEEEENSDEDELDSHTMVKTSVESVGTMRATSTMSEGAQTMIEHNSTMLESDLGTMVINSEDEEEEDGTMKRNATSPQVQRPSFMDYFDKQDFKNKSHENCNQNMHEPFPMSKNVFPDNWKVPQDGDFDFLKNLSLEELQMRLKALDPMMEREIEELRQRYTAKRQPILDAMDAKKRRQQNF
UniProt Q00536, sequence (whole entry, looked up): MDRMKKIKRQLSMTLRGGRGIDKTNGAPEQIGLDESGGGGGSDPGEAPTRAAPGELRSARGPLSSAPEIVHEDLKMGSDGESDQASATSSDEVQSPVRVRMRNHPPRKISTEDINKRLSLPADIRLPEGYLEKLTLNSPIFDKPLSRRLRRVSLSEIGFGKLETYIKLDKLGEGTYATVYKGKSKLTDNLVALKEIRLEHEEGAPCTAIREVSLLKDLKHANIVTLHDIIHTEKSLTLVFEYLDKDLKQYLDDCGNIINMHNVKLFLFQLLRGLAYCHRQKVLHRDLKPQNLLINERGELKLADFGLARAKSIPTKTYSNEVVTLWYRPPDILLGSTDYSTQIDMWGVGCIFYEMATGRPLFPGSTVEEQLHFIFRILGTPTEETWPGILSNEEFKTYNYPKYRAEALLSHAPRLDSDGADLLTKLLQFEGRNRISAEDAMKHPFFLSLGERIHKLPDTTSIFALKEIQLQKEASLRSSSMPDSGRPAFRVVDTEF
UniProt Q6IQ55, sequence (whole entry, looked up): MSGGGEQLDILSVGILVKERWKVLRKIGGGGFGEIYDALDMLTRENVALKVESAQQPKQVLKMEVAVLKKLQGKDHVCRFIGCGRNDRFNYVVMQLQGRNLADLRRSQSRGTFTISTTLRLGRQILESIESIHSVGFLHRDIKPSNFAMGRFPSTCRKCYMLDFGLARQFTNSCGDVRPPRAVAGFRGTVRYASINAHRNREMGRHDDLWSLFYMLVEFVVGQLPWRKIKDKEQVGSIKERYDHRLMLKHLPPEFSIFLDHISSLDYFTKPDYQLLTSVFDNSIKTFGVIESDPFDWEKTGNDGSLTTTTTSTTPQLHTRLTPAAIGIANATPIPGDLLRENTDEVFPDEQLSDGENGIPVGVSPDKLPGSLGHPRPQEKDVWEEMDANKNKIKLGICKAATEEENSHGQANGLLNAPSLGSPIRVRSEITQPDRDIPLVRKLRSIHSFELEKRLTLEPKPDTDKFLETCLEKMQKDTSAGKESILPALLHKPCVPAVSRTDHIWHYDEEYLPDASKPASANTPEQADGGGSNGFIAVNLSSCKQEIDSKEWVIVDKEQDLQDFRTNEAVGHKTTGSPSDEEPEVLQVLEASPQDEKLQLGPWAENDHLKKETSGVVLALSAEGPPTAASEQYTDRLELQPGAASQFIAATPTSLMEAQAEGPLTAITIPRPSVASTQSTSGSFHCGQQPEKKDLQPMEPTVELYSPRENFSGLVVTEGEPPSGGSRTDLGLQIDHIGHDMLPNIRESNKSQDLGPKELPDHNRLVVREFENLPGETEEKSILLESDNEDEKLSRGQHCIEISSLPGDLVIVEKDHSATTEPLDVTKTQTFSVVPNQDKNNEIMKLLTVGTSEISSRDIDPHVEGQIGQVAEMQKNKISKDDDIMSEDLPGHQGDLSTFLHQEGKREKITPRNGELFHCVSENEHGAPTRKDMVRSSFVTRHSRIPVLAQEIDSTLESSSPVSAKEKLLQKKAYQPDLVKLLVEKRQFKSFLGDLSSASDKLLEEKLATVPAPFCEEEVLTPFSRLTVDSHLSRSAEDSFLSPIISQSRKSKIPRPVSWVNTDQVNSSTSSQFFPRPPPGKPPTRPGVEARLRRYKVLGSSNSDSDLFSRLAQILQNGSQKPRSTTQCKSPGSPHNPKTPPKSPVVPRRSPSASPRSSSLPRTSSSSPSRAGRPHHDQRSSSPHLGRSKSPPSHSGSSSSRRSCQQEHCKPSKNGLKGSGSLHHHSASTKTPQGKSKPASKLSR

Structure (SMILES) | target | assay | system | conditions | scale | remaining activity [%]
COc1ccc(F)cc1C(=O)NCc1ccc(-c2nn([C@@H](C)C(F)(F)F)c(N)c2C(N)=O)cc1 | Cyclin-dependent kinase 16, with cyclin Y (CDK16, Homo sapiens, UniProt Q00536) | kinase activity, inhibitor, HotSpot radiometric |  | 100 nM, added: ATP 10 µM |  | 92.3 ± 1.5
Nc1ncc2c(n1)-c1c([nH]c3ccc(-c4ccc(F)cc4)cc13)CCC2 | Tau-tubulin kinase 2 (TTBK2, Homo sapiens, UniProt Q6IQ55) | kinase activity, inhibitor, radiometric |  | 1 µM, added: ATP at Km |  | 81
COc1cc(Nc2ncc3c(n2)-c2ccc(Cl)cc2C(c2c(F)cccc2OC)=NC3)ccc1C(=O)O | SRPK1 | kinase activity |  | 1 µM |  | 93
CC#CC(=O)N1CCC[C@H]1c1nc(-c2ccc(C(=O)Nc3ccccn3)cc2)c2c(N)nccn12 | Aurora kinase A (AURKA, Homo sapiens, UniProt O14965) | kinase activity, inhibitor, HotSpot radiometric |  | 100 nM, added: ATP 10 µM |  | 98.3 ± 2.7
COc1cc(C#CC(=O)c2ccccc2)ccc1O | rhlR | reporter gene, inhibitor | Pseudomonas aeruginosa QS reporter strain | 10 µM, 1.5 h | baseline: DMSO control | 52
O=C(NC1CCC1)c1ccc2nc(-c3cccc(NS(=O)(=O)NCCN4CCCCC4)c3)cn2c1 | Cyclin-dependent kinase 2 homolog (CRK2, Plasmodium falciparum, UniProt P61075) | enzyme activity |  | 10 µM |  | 89
COc1cc(-c2cncc3c2CN(C)Cc2cc(N4CCNCC4)ccc2-3)cc(OC)c1OC | Proto-oncogene tyrosine-protein kinase ROS (ROS1, Homo sapiens, UniProt P08922) | kinase activity |  | 1 µM, human enzyme, added: ATP 10 µM | baseline: DMSO control | 119
COc1cc(C#CC(=O)CC(C)C)ccc1O | rhlR | reporter gene, inhibitor, quorum sensing reporter strain |  | 10 µM, 1.5 h | baseline: DMSO | 81
COc1cc(F)ccc1-c1ncnc(Nc2cccc(C[S@](C)(=N)=O)c2)n1 | Serine/threonine-protein kinase 3 (STK3, Homo sapiens, UniProt Q13188) | kinase activity |  | 10 µM, added: 10 µM ATP |  | 97
OC(C#Cc1ccc(F)c(F)c1)c1ccccc1 (stereo not shown) | rhlR | reporter gene, inhibitor, quorum sensing reporter strain |  | 10 µM, 1.5 h | baseline: DMSO | 78
O=C(O)c1ccc(Nc2ncc3c(n2)-c2ccc(Cl)cc2C(c2c(F)cccc2F)=NC3)cc1 | GSK3ß(h) | kinase activity |  | 1 µM |  | 102
C=CC(=O)N1CCC[C@@H](n2nc(-c3ccc(Oc4ccccc4)cc3)c3c(N)ncnc32)C1 | Ephrin type-B receptor 3 (EPHB3, Homo sapiens, UniProt P54753) |  |  | 1 µM |  | 142
COc1cc(C#CC(=O)c2ccc(C)cc2)ccc1O | rhlR | reporter gene, inhibitor, quorum sensing reporter strain |  | 10 µM, 1.5 h | baseline: DMSO | 62

For quick reference, copied from above:
Structure (SMILES) | target | assay | system | conditions | scale | remaining activity [%]
COc1cc(-c2cncc3c2CN(C)Cc2cc(N4CCNCC4)ccc2-3)cc(OC)c1OC | Proto-oncogene tyrosine-protein kinase ROS (ROS1, Homo sapiens, UniProt P08922) | kinase activity |  | 1 µM, human enzyme, added: ATP 10 µM | baseline: DMSO control | 119
